# Measurements collected from several papers.
# Compare with care: the assays were run in different laboratories. ± marks the error that the study gave.
SMILES,target,assay,system,conditions,IC50 [nM]
CCOP(=S)(OCC)O/N=C(\C#N)c1ccccc1,nanobody A4,"binding, ic-ELISA",,,5180
CCOC(=O)c1ccc(OC(=O)CCCCCN=C(N)N)cc1,trypsin (human),"enzyme activity, inhibitor",,,32.3
CCOP(=S)(OCC)Oc1nc(Cl)c(Cl)cc1Cl,nanobody A4,"binding, ic-ELISA",,,> 10000
CO/N=C1\C[C@]2(C[C@@H]3C[C@@H](C/C=C(\C)C[C@@H](C)/C=C/C=C4\CO[C@@H]5[C@H](O)C(C)=C[C@@H](C(=O)O3)[C@]45O)O2)O[C@H](/C(C)=C/C(C)C)[C@H]1C,LXRalpha,,cells,,31100 ± 2600
C[C@H]1N=C(c2ccccc2F)c2cc(Br)ccc2-n2cnc(C(=O)O)c21,rat brain GABA-A receptor,[3H]flunitrazepam binding,rat brain extract,,26.3
COc1cc(Nc2ncc(F)c(Nc3ccc4c(n3)NC(=O)C(C)(C)O4)n2)cc(OC)c1OC,GABAA receptor chloride channel,binding,,together with: TBOB,> 10000
CO[C@H]1C[C@H](O[C@H]2[C@H](C)O[C@@H](O[C@@H]3/C(C)=C/C[C@@H]4C[C@@H](C[C@]5(C=C[C@H](C)[C@@H](C6CCCCC6)O5)O4)OC(=O)[C@@H]4C=C(C)[C@@H](O)[C@H]5OC/C(=C\C=C\[C@@H]3C)[C@]54O)C[C@@H]2OC)O[C@@H](C)[C@@H]1O,LXRalpha,,cells,,29900 ± 4680
CCOP(=S)(OCC)Oc1ccc2c(C)c(Cl)c(=O)oc2c1,nanobody A4,"binding, ic-ELISA",,,246
CC[C@H](C)[C@@H]1NC(=O)[C@H]([C@@H](C)O)NC(=O)CNC(=O)[C@H](CCC(=O)O)NC(=O)[C@H](CCCCN)NC(=O)[C@H](CC(C)C)NC(=O)[C@H](Cc2ccccc2)NC(=O)[C@H](CCCCN)NC(=O)[C@@H]2CSSC[C@H](NC(=O)[C@@H](N)CCC(=O)O)C(=O)N[C@@H](CCC(=O)O)C(=O)N[C@@H](CO)C(=O)NCC(=O)N3CCC[C@H]3C(=O)N[C@H]3CSSC[C@@H]4NC(=O)[C@H](Cc5ccc(O)cc5)NC(=O)[C@H](CC(=O)O)NC(=O)[C@H](CC(=O)O)NC(=O)[C@H](CCSC)NC(=O)[C@H](CC(=O)O)NC(=O)[C@H](CC(=O)O)NC(=O)CNC(=O)[C@H](CCCNC(=N)N)NC(=O)[C@H](C)NC(=O)[C@H](CCCNC(=N)N)NC(=O)[C@H](CCCCN)NC(=O)[C@H](CSSC[C@@H](C(=O)N5CCC[C@H]5C(=O)N[C@@H](CCCNC(=N)N)C(=O)N[C@@H](CC(N)=O)C(=O)N5CCC[C@H]5C(=O)N[C@@H](Cc5c[nH]cn5)C(=O)N[C@@H](CCCCN)C(=O)NCC(=O)N5CCC[C@H]5C(=O)N[C@@H](C)C(=O)N[C@H](C(=O)O)[C@@H](C)O)NC(=O)[C@H](CC(=O)O)NC(=O)[C@H](CSSC[C@H](NC3=O)C(=O)N[C@@H](CCCNC(=N)N)C(=O)N[C@@H](CC(N)=O)C(=O)N2)NC(=O)[C@H]([C@@H](C)O)NC(=O)[C@H](CCCCN)NC(=O)CNC(=O)[C@H](CC(N)=O)NC4=O)NC1=O,integrin αvβ3 (human),"cell adhesion to vitronectin, inhibitor",K562 expressing αvβ3,"2 h, 37 °C",3.2 ± 2.7

# Excerpt of the above:
SMILES,target,assay,system,conditions,IC50 [nM]
CCOP(=S)(OCC)Oc1nc(Cl)c(Cl)cc1Cl,nanobody A4,"binding, ic-ELISA",,,> 10000
